Published values gathered from unrelated publications.
Each line is one published result; not all experiments were run side by side. Values joined by “and” are separate records of one study, mostly repeats; a detail may differ. Numbers after ± are the reported error.
AfsR 1-980: AfsR 1-980 (Streptomyces avermitilis)
T1: AfsR 1-980 (Streptomyces avermitilis); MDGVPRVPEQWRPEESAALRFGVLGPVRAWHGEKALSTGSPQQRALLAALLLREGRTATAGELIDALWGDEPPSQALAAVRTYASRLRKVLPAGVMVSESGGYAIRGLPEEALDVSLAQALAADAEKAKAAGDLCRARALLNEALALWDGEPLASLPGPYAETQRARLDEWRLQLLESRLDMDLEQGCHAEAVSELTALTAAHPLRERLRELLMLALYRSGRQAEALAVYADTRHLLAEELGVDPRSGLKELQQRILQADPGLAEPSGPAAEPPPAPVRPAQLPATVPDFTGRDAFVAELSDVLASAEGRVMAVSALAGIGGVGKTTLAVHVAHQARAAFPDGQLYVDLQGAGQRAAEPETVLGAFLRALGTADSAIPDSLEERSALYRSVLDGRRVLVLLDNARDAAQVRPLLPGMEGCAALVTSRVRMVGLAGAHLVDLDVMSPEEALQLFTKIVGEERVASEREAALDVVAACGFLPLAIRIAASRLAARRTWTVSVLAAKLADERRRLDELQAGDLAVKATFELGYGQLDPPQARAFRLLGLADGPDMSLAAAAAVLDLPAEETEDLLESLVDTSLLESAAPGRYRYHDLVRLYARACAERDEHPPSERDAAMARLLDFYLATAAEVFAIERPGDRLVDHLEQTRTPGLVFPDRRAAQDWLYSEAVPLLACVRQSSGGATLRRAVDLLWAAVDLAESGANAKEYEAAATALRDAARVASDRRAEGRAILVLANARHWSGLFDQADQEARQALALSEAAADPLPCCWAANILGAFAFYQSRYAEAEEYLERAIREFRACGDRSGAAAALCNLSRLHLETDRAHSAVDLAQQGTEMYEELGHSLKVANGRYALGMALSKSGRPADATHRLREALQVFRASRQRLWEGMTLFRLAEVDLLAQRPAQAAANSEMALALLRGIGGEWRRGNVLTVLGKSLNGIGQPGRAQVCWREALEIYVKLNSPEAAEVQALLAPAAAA
B1: Escherichia coli lac repressor; chain MKPVTLYDVAEYAGVSYQTVSRVVNQASHVSAKTREKVEAAMAELNYIPNRVAQQLAGKQSLLIGVATSSLALHAPSQIVAAIKSRADQLGASVVVSMVERSGVEACKAAVHNLLAQRVSGLIINYPLDDQDAIAVEAACTNVPALFLDVSDQTPINSIIFSHEDGTRLGVEHLVALGHQQIALLAGPLSSVSARLRLAGWHKYLTRNQIQPIAEREGDWSAMSGFQQTMQMLNEGIVPTAMLVANDQMALGAMRAITESGLRVGADISVVGYDDTEDSSCYIPPLTTIKQDFRLLGQTSVDRLLQLSQGQAVKGNQLLPVSLVKRKTTLAPNTQTASPRALADSLMQLARQVSRLESGQ
B2: enzyme (Enterococcus faecalis, UniProt Q836M4); chain MEIHFEKVTSDNRKAVENLQVFAEQQAFIESMAENLKESDQFPEWESAGIYDGNQLIGYAMYGRWQDGRVWLDRFLIDQRFQGQGYGKAACRLLMLKLIEKYQTNKLYLSVYDTNSSAIRLYQQLGFVFNGELDTNGERVMEWTHQNK

| Substance | tested on | test | test system | conditions | scale | measurement | value |
| --- | --- | --- | --- | --- | --- | --- | --- |
| 6'-sialyl-N-acetyllactosamine | HMW2 adhesin Haemophilus influenzae | glycan array | Escherichia coli, DH5α expressing HMW2 | concentration not given | baseline: empty vector | binding signal | 27 fold |
| CCGCCATCCCCGTGGCAACCGCCCCCTCGCGTCCACCCCGGCAGGCCGTCCGCGGTTGCGCCGGAACAGGCGTTGCCATCGACATACCGTGCTCCGCAGAAAAATAACCGCCTCGACCTGAGACCTTTTTCCTTCTCGGCTGGCAAGTAGAGGAATCCGCCCCGACCCAAGGTCCGCAGAGACCACGAGGAACCCTGTACATGCCCGT (dsDNA (Pseudomonas aeruginosa)) | exsA full length assumed (Pseudomonas aeruginosa, UniProt P26993) | EMSA | double-stranded DNA, one strand shown | 20 nM, two shifted bands | – | binding | binds |
| AAATQEMTLVDTPNAK | MsrA and MsrB | LC-MS/MS | peptide, actinonin-treated Escherichia coli proteome | 20 min, pH 7.5, 37 °C, added: MsrA 0.54 µM, MsrB 2.02 µM | – | fractional oxidation | 0.151 |
| CGTGAAACTGAACTCTCCCGAGGCCGCCGAGGTGCAGGCACTGCTGGCTCCGGCCGCCGCTGCCTGACACCGGGCAGGGCGTTCATCGTTCGTTTATCGCGGCCAGGCACTCTCTTGGTTGTCGATCCGTCGCGTCGGGGGGCAGACGGACCGCCGGTGAGGTCGCCGCACTCGCACCTTAGGGTGGGCGACTCGAGTGGCCCACCCGGCCACCCTCGGGGGAGTGGCCGGGTGGGCTCTCCACAGTTCAACGGCAATCACCATGGGGAGGCACCATCATGAGCGACATCACGAAGGAC (dsDNA) | T1, AfsR 1-980 (Streptomyces avermitilis) | EMSA | double-stranded DNA, one strand shown | – | – | binding | binds |
| KYHSNVKEL | Mamu-B*08301 MHC class I | peptide binding | peptide, Chinese rhesus macaque | – | – | IC50 | > 20 µM |
| insulin human | – | item: GOT1 mRNA | EcoHIV-infected mouse, brain | i.p., dose not given | baseline: PBS | fold change | 1.1 |
| maxadilan | ADCYAP1R1 (Homo sapiens, UniProt P41586) | cAMP production, agonist | COS-7 | 37 °C, AUC over 20 min | – | Emax | 70 ± 2% |
| RGPGRAFV | mouse H2-Dd S73C/human β2m | thermal stability rescue, DSF | peptide | 20-fold molar excess, pH 7.2, peptide-deficient, added: TCEP 1 mM | – | Tm | 34.7 ± 0.3 °C |
| abamectin | CAR | reporter gene, luciferase | – | concentration not given | – | activity | inactive |
| aspterric acid | – | hypocotyl length | Arabidopsis thaliana Col-0 seeds | 25.0 µg/mL, 7 days, dark | – | inhibition | 98% |
| TPPLVRLVF | Mamu-A1*02601 MHC class I | peptide binding | peptide, Chinese rhesus macaque | – | – | IC50 | > 20 µM |
| orexin-B | non-responsive control sensor | sensor fluorescence, fluorescence imaging | HEK293T | 10 µM, added: OXB 10 µM | baseline: baseline | maximal ΔF/F0 | 3.95% and 13.2% and 7.2% and -9.18% and 6.7% and 6.15% |
| GTSRNKRGV | Mamu-B*08301 MHC class I | peptide binding | peptide, Chinese rhesus macaque | – | – | IC50 | > 20 µM |
| AAAALERLLQQLAAALAAGEL | UltraID biotin ligase, C-terminal fusion | biotinylation activity, inhibitor, streptavidin/HA fluorescence ratio | peptide, HEK-293T | concentration not given, 30 min, added: biotin 50 µM | baseline: control | inhibition | > 75% |
| LAYTYEAYV | Mamu-A1*02601 MHC class I | peptide binding | peptide, Chinese rhesus macaque | – | – | IC50 | > 20 µM |
| GGCAATTCCCTTAGTTGGCCACCGTCGGCGGTCACGCAGGGCAATGGGCGGGACCCCGGGCGGCGCTCGGCGGAGCGGGCTCGCGCGGGGGTGATCCCTCGCCCTTCGCGCACTGCGACACTTCAGTCACGCTACGCTCACATGAATTCCGAATCAGGCAGGCATCTCGACATCAGACCGACAGGTCACCCAGGCATCCCCAGTTCACGGCAGAACGGCACAAGGCGAC (dsDNA) | T1, AfsR 1-980 (Streptomyces avermitilis) | EMSA | double-stranded DNA, one strand shown | – | – | binding | no binding |
| YTSGPGIRY | Mamu-A1*02601 MHC class I | peptide binding | peptide, Chinese rhesus macaque | – | – | IC50 | > 20 µM |

| Substance | tested on | test | test system | conditions | scale | measurement | value |
| --- | --- | --- | --- | --- | --- | --- | --- |
| B1 (Escherichia coli lac repressor) | lac repressor Escherichia coli | – | – | concentration not given, O1 operator DNA, added: [14C]IPTG | – | remaining binding | 100% |
| hexaarginine | PorA peptide pore | peptide binding, planar bilayer single-channel recording | – | 0.5 µM, pH 7.4, +20 mV, trans side, 150 mM KCl | – | kon | 1.71e+07 ± 2e+06 M⁻¹ s⁻¹ |
| Ac-LRKLRKRLLRDWLKAFYDKVAEKLKEAF-NH2 (N-acetyl, C-amide) | THP-1 derived macrophages | – | peptide | 2 h pulse, 24 h chase, heparin wash | – | cell-associated peptide | 30 ± 1.1% |
| KFGLPRIVA | Mamu-A1*02601 MHC class I | peptide binding | peptide, Chinese rhesus macaque | – | – | IC50 | > 20 µM |
| RAFVTI | mouse H2-Dd S73C/human β2m | thermal stability rescue, DSF | peptide | 20-fold molar excess, pH 7.2, peptide-deficient, added: TCEP 1 mM | – | Tm | 35.3 ± 0.1 °C |
| nonaarginine | PorA peptide pore | peptide binding, planar bilayer single-channel recording | – | 0.5 µM, pH 7.4, +5 mV, trans side, 150 mM KCl | – | kon | 970000 ± 100000 M⁻¹ s⁻¹ |
| Polymyxin B | – | – | mouse, serum | 20 mg/kg | – | Kim-1 level | 79.4 ng/mL |
| amyloid β-peptide (1–28) | – | substrate, LC-MS | phosphate buffer | 10 µM, 2 h, pH 7.4, 25 °C, added: MINP(β1–14) 1 equiv | – | remaining substrate | 88.4 ± 3.6% |
| RGPGRAFVT | mouse H2-Dd S73C/human β2m | thermal stability rescue, DSF | peptide | 20-fold molar excess, pH 7.2, peptide-deficient, added: TCEP 1 mM | – | Tm | 34.2 ± 0.2 °C |
| B2 (enzyme) | NCCCNCCCCNCCCN | steady-state kinetics | – | pH 8, 37 °C, Hill n 1.7, added: AcCoA 1 mM | – | kcat/Km | 311000 M⁻¹ s⁻¹ |
| EFTEDELPSDSCVFGGQKLTL | IKK, human | – | peptide | 500 µM, 5 min, 30 °C, added: IκBα 1 µM | baseline: no peptide | IκBα phosphorylation | 5.69% and 0% |
| CEMDGQCKRDLKCCMGMCGKSCVSPVKA | NF-κB (mouse) | Western blot | peptide, RAW264.7 | concentration not given, 6 h pretreatment, added: LPS for 30 min | – | p-NF-κB/NF-κB ratio | 0.16 ± 0.04 |
| RSATETLAG | Mamu-A1*02601 MHC class I | peptide binding | peptide, Chinese rhesus macaque | – | – | IC50 | > 20 µM |
| GRAFVTI | mouse H2-Dd/human β2m | thermal stability rescue, DSF | peptide | 20-fold molar excess, pH 7.2, peptide-deficient, UV-irradiated | – | Tm | 35.8 ± 0.3 °C |
| KLLETRLQTGEKPRLLALVEG | UltraID biotin ligase, C-terminal fusion | biotinylation activity, inhibitor, streptavidin/HA fluorescence ratio | peptide, HEK-293T | concentration not given, 30 min, added: biotin 50 µM | baseline: control | inhibition | > 75% |
| (−)-cocaine | cardiac sodium channel (calf) | – | – | batrachotoxin-activated | – | Kd | ~20 µM |

Excerpt of the above:
| Substance | tested on | test | test system | conditions | scale | measurement | value |
| --- | --- | --- | --- | --- | --- | --- | --- |
| RGPGRAFV | mouse H2-Dd S73C/human β2m | thermal stability rescue, DSF | peptide | 20-fold molar excess, pH 7.2, peptide-deficient, added: TCEP 1 mM | – | Tm | 34.7 ± 0.3 °C |
| LAYTYEAYV | Mamu-A1*02601 MHC class I | peptide binding | peptide, Chinese rhesus macaque | – | – | IC50 | > 20 µM |
| nonaarginine | PorA peptide pore | peptide binding, planar bilayer single-channel recording | – | 0.5 µM, pH 7.4, +5 mV, trans side, 150 mM KCl | – | kon | 970000 ± 100000 M⁻¹ s⁻¹ |
| RGPGRAFVT | mouse H2-Dd S73C/human β2m | thermal stability rescue, DSF | peptide | 20-fold molar excess, pH 7.2, peptide-deficient, added: TCEP 1 mM | – | Tm | 34.2 ± 0.2 °C |
| aspterric acid | – | hypocotyl length | Arabidopsis thaliana Col-0 seeds | 25.0 µg/mL, 7 days, dark | – | inhibition | 98% |
